Values quoted from earlier work, collected from citations in different studies.
Compare with care: the assays were run in different laboratories. ± gives the spread as reported.

SMILES	test	test system	setting	scale	endpoint	result
Cn1c2cc([S+](C)[O-])sc2c2cnn(Cc3cccc(N)c3)c(=O)c21 (stereo not drawn)	–	rd10 retinal explants ex vivo	concentration not given, outer nuclear layer	–	TUNEL-positive cells	decreased
CNC(=O)c1ccc(N2C(=S)N(c3ccc(C#N)c(C(F)(F)F)c3)C(=O)C2(C)C)cc1F	–	human, metastatic castration-resistant prostate cancer	dose not given	–	activity	active
CC(=O)N[C@H](CSSC[C@H](N)C(=O)O)C(=O)N[C@H](C)C(=O)N[C@H](CCCNC(=N)N)C(=O)N[C@H](CCCNC(=N)N)C(=O)N[C@H](CCCNC(=N)N)C(=O)N[C@H](C)C(=O)N[C@H](CCCNC(=N)N)C(N)=O	–	5/6 nephrectomized rat	dose not given	–	parathyroid gland hyperplasia	decreased
CO[C@@H]1[C@H](O)[C@@H](COP(=O)([O-])OP(=O)(O)CP(=O)(O)OP(=O)(O)OC[C@H]2O[C@@H](n3cnc4c(=O)[nH]c(N)nc43)[C@H](O)[C@@H]2O)O[C@H]1n1c[n+](C)c2c(O)nc(N)nc21	cap-dependent translation, inhibitor	rabbit reticulocyte lysate	no preincubation	–	IC50	2.8 ± 0.2 µM
C[C@@H]1O[C@@H](O[C@@H]2CO[C@@H](Oc3c(O)cc(-c4oc5cc(O)cc(O)c5c(=O)c4O[C@@H]4O[C@@H](C)[C@H](O)[C@@H](O)[C@H]4O[C@@H]4O[C@H](COC(=O)/C=C/c5ccc(O)c(O)c5)[C@@H](O)[C@H](O)[C@H]4O[C@@H]4O[C@H](CO)[C@@H](O)[C@H](O)[C@H]4O)cc3O)[C@H](O)[C@H]2O)[C@H](O)[C@H](O)[C@H]1O	antihyperglycaemic	Zucker diabetic fatty rat, plasma	dose not given	–	blood glucose	decreased
CO[C@@H]1[C@H](O)[C@@H](COP(=O)(O)OP(=O)([O-])OP(=O)(O)OP(=O)(O)OC[C@H]2O[C@@H](n3cnc4c(=O)[nH]c(N)nc43)[C@H](O)[C@@H]2O)O[C@H]1n1c[n+](C)c2c(O)nc(N)nc21	cap-dependent translation, inhibitor	rabbit reticulocyte lysate	preincubated 60 min in lysate	–	IC50	4.2 ± 0.1 µM
C=CC(OC1OC(C(=O)O)C(O)C(O)C1O)c1ccc(OC)cc1 (stereo not drawn)	–	male rat, liver	glucuronidation	–	scaled Vmax	60 µmol/h/g liver
CCCCCCCCCCCCCC(=O)N[C@@H](CO)C(=O)N[C@H](C(=O)N[C@@H](Cc1ccc(O)cc1)C(=O)N[C@@H](CCCNC(=N)N)C(=O)N[C@@H](CCCNC(=N)N)C(=O)NCC(=O)N[C@@H](C)C(=O)N[C@@H](CCCNC(=N)N)C(=O)N[C@@H](CCCNC(=N)N)C(=O)N[C@@H](Cc1c[nH]c2ccccc12)C(=O)N[C@@H](CCCNC(=N)N)C(=O)N[C@@H](CCCCN)C(=O)N[C@@H](CC(C)C)C(=O)O)[C@@H](C)CC	–	hippocampal slices	–	–	lowest dose reversing LTP maintenance	~5 µM
CC(C)C[C@@H](NC(=O)[C@H](C)NC(=O)CNC(=O)[C@@H](NC=O)C(C)C)C(=O)N[C@@H](C)C(=O)N[C@@H](C(=O)N[C@H](C(=O)N[C@@H](C(=O)N[C@@H](Cc1c[nH]c2ccccc12)C(=O)N[C@H](CC(C)C)C(=O)N[C@@H](Cc1c[nH]c2ccccc12)C(=O)N[C@H](CC(C)C)C(=O)N[C@@H](Cc1c[nH]c2ccccc12)C(=O)N[C@H](CC(C)C)C(=O)N[C@@H](Cc1c[nH]c2ccccc12)C(=O)NCCO)[C@H](C)O)C(C)C)C(C)C	H+/Na+ exchange	EYPC/EYPG liposomes	–	–	EC50	0.0016 µM
CCC1C=CC2CCN(C(=O)C3CCC4C=CC5(CCCN5C(=O)C(Cc5ccccc5Cl)NC(C)=O)C(=O)N43)C2C(=O)N1CC(=O)OC (stereo not drawn)	cancer cell extravasation	MDA-MB-231, transgenic zebrafish	–	concentration reducing extravasation	effective concentration	1 µM
Cc1nc(N(C)C)nc(C)c1O	styrene autoxidation	–	323 K	–	inhibition rate constant	8.6e+06 M⁻¹ s⁻¹
CC(=N)NCc1cccc(CN)c1	–	hippocampal slices	1 µM	–	long-term potentiation	decreased
CC(C)(O)c1ncc([S@](N)(=O)=NC(=O)Nc2c3c(cc4c2CCC4)CCC3)s1	IL-1β release	human whole blood	plasma concentration, added: LPS	–	IC50	0.33 µM
Oc1ccc(O)c(CN(CCN(Cc2ccccn2)Cc2cc(O)ccc2O)Cc2ccccn2)c1.[Br-].[Br-].[Mn+2]	–	–	concentration not given, pH 7.0, water exchange	–	activation enthalpy	5.26 kcal/mol
C[n+]1cn([C@@H]2O[C@H](COP(=O)(O)OP(=O)([O-])OP(=O)(O)OP(=O)(O)OC[C@H]3O[C@@H](n4cnc5c(=O)[nH]c(N)nc54)[C@H](O)[C@@H]3O)[C@@H](O)[C@H]2O)c2nc(N)nc(O)c21	cap-dependent translation, inhibitor	rabbit reticulocyte lysate	no preincubation	–	IC50	5 ± 0.5 µM
CC1=C(C2=C(C)C(=O)c3c(cc(O)c(O)c3C(C)C)C2=O)C(=O)c2cc(O)c(O)c(C(C)C)c2C1=O (racemic)	–	B6 Bcl-2-transgenic mouse	60 µmol/kg	–	spleen size reduction	15 ± 2%
C=CC(O)c1ccc(OC)cc1 (stereo not drawn)	–	male rat, lung microsomes	–	–	catalytic efficiency	18 mL/h/g liver
C[n+]1cn([C@@H]2O[C@H](COP(=O)([O-])OP(=O)(O)CP(=O)(O)OP(=O)(O)OC[C@H]3O[C@@H](n4cnc5c(=O)[nH]c(N)nc54)[C@H](O)[C@@H]3O)[C@@H](O)[C@H]2O)c2nc(N)nc(O)c21	cap-dependent translation, inhibitor	rabbit reticulocyte lysate	preincubated 60 min in lysate	–	IC50	3.8 ± 0.2 µM
CC#N.Cc1ccc(O)c(CN(CCN(Cc2ccccn2)Cc2ccccn2)Cc2ccccn2)c1.[Mn+2]	–	–	concentration not given, pH 7.4, water exchange	–	activation enthalpy	6.36 kcal/mol
CC/C=C\C/C=C\C/C=C\C/C=C\C/C=C\C/C=C\CCC(=O)OC(CO)COP(=O)([O-])OCC[N+](C)(C)C (stereo not drawn)	measured: docosahexaenoic acid	normal adult mice	dietary, dose not given	reference: untreated	brain DHA level increase	> 2 fold
NC(=O)C1(NC(=O)[C@H](Cc2ccccc2)NC(=O)[C@@H](Cc2c[nH]c3ccccc23)NC(=O)[C@@H](Cc2csc3ccccc23)NC(=O)C2CCNCC2)CCNCC1	gastric emptying acceleration	healthy human, plasma	–	–	EC50	~0.49 ng/mL
C=C(C[C@H](N)C(=O)O)C(=O)O	–	newborn rat spinal cord	–	reference: L-glutamate	relative depolarizing potency	10
C=CC(OS(=O)(=O)O)c1ccc(OC)cc1 (stereo not drawn)	–	human, liver	sulfonation	–	catalytic efficiency	0.1 mL/h/g liver
CC1=CCC23OC2(C)CCC2C(CN(C)C)C(=O)OC2C13.Cl (stereo not drawn)	–	Pliss lymphosarcoma, rat	intraperitoneal and intratumoral, dose not given	–	tumour growth inhibition	72 to 79%

For quick reference, copied from above:
SMILES	test	test system	setting	scale	endpoint	result
CC1=CCC23OC2(C)CCC2C(CN(C)C)C(=O)OC2C13.Cl (stereo not drawn)	–	Pliss lymphosarcoma, rat	intraperitoneal and intratumoral, dose not given	–	tumour growth inhibition	72 to 79%
Cn1c2cc([S+](C)[O-])sc2c2cnn(Cc3cccc(N)c3)c(=O)c21 (stereo not drawn)	–	rd10 retinal explants ex vivo	concentration not given, outer nuclear layer	–	TUNEL-positive cells	decreased
CC/C=C\C/C=C\C/C=C\C/C=C\C/C=C\C/C=C\CCC(=O)OC(CO)COP(=O)([O-])OCC[N+](C)(C)C (stereo not drawn)	measured: docosahexaenoic acid	normal adult mice	dietary, dose not given	reference: untreated	brain DHA level increase	> 2 fold
